{"data": "Published values from different studies", "organism": "Escherichia coli", "note": "Numbers after ± are the reported error."}
{"Compound": "CCCCCCCCCC1N=C(N)N=C(N)N1c1ccccc1C.Cl (racemic)", "assay": "broth microdilution", "test system": "ATCC 25922", "setting": "with: 7.4 mg/mL thymidine", "measurement": "MIC90", "result": "64 µM"}
{"Compound": "COc1ccc2c(c1CC=C(C)C)O[C@H]1c3cc4c(cc3OC[C@@]21O)OC(C)(C)C=C4", "test system": "TISTR 780", "setting": "concentration not given", "measurement": "antibacterial activity", "result": "inactive"}
{"Compound": "c1ccc(CN2CCOCCOCCN(CCCCCCCCCCCCN3CCOCCOCCN(CCCCCCCCCCCCN4CCOCCOCCN(Cc5ccccc5)CCOCCOCC4)CCOCCOCC3)CCOCCOCC2)cc1", "assay": "K+ selective electrode", "test system": "tetracycline-resistant", "setting": "4 µM, 10 min", "how to read": "reference: total", "measurement": "potassium release", "result": "21%"}
{"Compound": "Cc1ccc2ccc3ccc(C)nc3c2n1.Cc1ccc2ccc3ccc(C)nc3c2n1.O.[Cl-].[Cl-].[Cl-].[Yb+3]", "setting": "5 mg/mL", "measurement": "zone of inhibition", "result": "38 mm"}
{"Compound": "c1ccc(CN2CCOCCOCCN(CCCCCCCCCCN3CCOCCOCCN(CCCCCCCCCCN4CCOCCOCCN(Cc5ccccc5)CCOCCOCC4)CCOCCOCC3)CCOCCOCC2)cc1", "assay": "K+ selective electrode", "test system": "tetracycline-resistant", "setting": "4 µM, 10 min", "how to read": "reference: total", "measurement": "potassium release", "result": "4%"}
{"Compound": "Cc1ccc(N(CCc2nnc(S)o2)S(=O)(=O)c2ccc(C)cc2)cc1", "assay": "cup plate method", "setting": "100 µg/mL", "how to read": "reference: cotrimoxazole", "measurement": "relative inhibition", "result": "46.1%"}
{"Compound": "N.N.[Cl][Pt+].c1ccc2c(c1)cnc1ccccc12", "assay": "bacterial cytological profiling", "test system": "BL21(DE3)", "setting": "MIC, 24 h", "measurement": "average filament length", "result": "44 µm"}
{"Compound": "C[C@]1(COC(=O)Cc2ccc(O)c(O)c2)[C@H](C(=O)O)N2C(=O)/C(=C/c3ccccn3)[C@H]2S1(=O)=O", "assay": "broth microdilution", "test system": "TG1 expressing FOX-4", "setting": "16 µg/mL", "measurement": "MIC of ceftazidime", "result": "≤ 0.06 µg/mL"}
{"Compound": "c1ccc(CN2CCOCCOCCN(CCCCCCCCN3CCOCCOCCN(CCCCCCCCN4CCOCCOCCN(Cc5ccccc5)CCOCCOCC4)CCOCCOCC3)CCOCCOCC2)cc1", "assay": "K+ selective electrode", "test system": "tetracycline-resistant", "setting": "4 µM, 10 min", "how to read": "reference: total", "measurement": "potassium release", "result": "6%"}
{"Compound": "C[C@]1(COC(=O)c2ccc(O)c(O)c2)[C@H](C(=O)O)N2C(=O)/C(=C/c3ccccn3)[C@H]2S1(=O)=O", "assay": "broth microdilution", "test system": "TG1 expressing FOX-4", "setting": "16 µg/mL", "measurement": "MIC of ceftazidime", "result": "≤ 0.06 µg/mL"}
{"Compound": "c1ccc(CSc2nnc(C34CC5CC(CC(C5)C3)C4)n2-c2ccccc2)cc1", "test system": "IFO 3301", "setting": "200 µg/disc, 24 h, 37 °C", "measurement": "inhibition zone diameter", "result": "< 10 mm"}
{"Compound": "CCCCCCCCCC1N=C(N)N=C(N)N1c1ccc(Cl)cc1.Cl (racemic)", "assay": "broth microdilution", "test system": "ATCC 25922", "setting": "with: 7.4 mg/mL thymidine", "measurement": "MIC90", "result": "64 µM"}
{"Compound": "O=C(O)[C@@H]1Cc2c([nH]c3ccccc23)[C@@H](c2ccccc2Cl)N1", "test system": "BL21(DE3)", "setting": "250 µM, 18 h", "measurement": "growth inhibition", "result": "0%"}
{"Compound": "CCN(CC)CCSc1nnc(C23CC4CC(CC(C4)C2)C3)n1C", "test system": "IFO 3301", "setting": "200 µg/disc, 24 h, 37 °C", "measurement": "inhibition zone diameter", "result": "< 10 mm"}
{"Compound": "CCCCCCCCCC1CC2CCC3CC(CCCCCCCCC)NC(=N1)N23 (stereo not drawn)", "assay": "bacterial growth", "test system": "ATCC 35218", "measurement": "IC50", "result": "7.02 µM"}
{"Compound": "CC(CCCOC(=O)CCC[N+](C)(C)C)C1CCC2C3CCC4CC(OC(=O)CCC[N+](C)(C)C)CCC4(C)C3CC(OC(=O)CCC[N+](C)(C)C)C12C (stereo not drawn)", "assay": "inner membrane permeabilization, ONPG hydrolysis", "setting": "90 min", "measurement": "permeabilizing concentration", "result": "≥ 15.6 µg/mL"}
{"Compound": "Cc1c2c(cc3oc(=O)cc(-c4ccccc4)c13)C(=O)c1cccc(O)c1C2=O", "test system": "MTCC 739", "setting": "100 µg/disc", "measurement": "inhibition zone diameter", "result": "12 mm"}
{"Compound": "CNC1=C([N+](=O)[O-])C2(C(=O)Nc3ccc([N+](=O)[O-])cc32)C2=C(CCCC2=O)O1 (stereo not drawn)", "assay": "microbial growth", "test system": "ATCC25922", "setting": "250 µg/mL, 24 h", "measurement": "inhibition", "result": "31.6%"}
{"Compound": "CCOC(=O)C1=C(C)NC2=C(C(=O)CC(C)(C)C2)C1c1ccc(OCC(=O)NN=Cc2cc(Br)c(O)c(Br)c2)cc1OCC(=O)NN=Cc1cc(Br)c(O)c(Br)c1 (stereo not drawn)", "test system": "ATCC 25922", "setting": "concentration not given, 24 h, 37 °C", "measurement": "inhibition zone diameter", "result": "6.6 ± 0.01 mm"}
{"Compound": "CC[C@H](C)[C@H](NC(=O)[C@H](CS)NC(=O)[C@@H](NC(=O)[C@@H]1CCCN1C(=O)[C@H](Cc1ccccc1)NC(=O)[C@H](CC(N)=O)NC(=O)[C@@H](NC(=O)[C@H](CC(=O)O)NC(=O)CCNC(=O)CNC(=O)O[C@H]1CC[C@@]2(C)C(=CC[C@H]3[C@@H]4CC[C@H]([C@H](C)CCCC(C)C)[C@@]4(C)CC[C@@H]32)C1)[C@@H](C)O)[C@@H](C)CC)C(=O)N[C@@H](Cc1ccccc1)C(N)=O", "test system": "mouse, lung", "setting": "intratracheal, 25 nmol per mouse, 24 h", "measurement": "α-SMA expression", "result": "increased"}
{"Compound": "CC[C@H](C)[C@H](NC(=O)[C@H](CCCN)NC(=O)[C@H](CC(N)=O)NC(=O)[C@H](Cc1c[nH]c2ccccc12)NC(=O)[C@H](Cc1ccccc1)NC(=O)[C@H](CCCN)NC(=O)[C@H](CCCNC(=N)N)NC(=O)[C@H](CC(C)C)NC(=O)[C@H](Cc1c[nH]c2ccccc12)NC(=O)[C@H](CCCN)NC(=O)[C@H](CCCNC(=N)N)NC(=O)[C@H](CC(C)C)NC(=O)CNC(C)=O)C(=O)N[C@@H](CCCN)C(=O)N[C@@H](CCCNC(=N)N)C(N)=O", "test system": "ATCC 25922", "setting": "12 h, with: plasma pretreatment", "how to read": "reference: MIC without plasma pretreatment", "measurement": "MIC fold increase", "result": "4 fold"}
{"Compound": "COc1ccc(-c2ccn(CC[C@](C)(C(=O)NO)S(C)(=O)=O)c(=O)c2)c(F)c1", "assay": "microbial growth, broth dilution", "setting": "clinical isolate", "measurement": "MIC90", "result": "0.25 µg/mL"}
{"Compound": "CC[C@H](C)[C@H](NC(=O)[C@H](CCCNC(=N)N)NC(=O)[C@@H](N)CCCNC(=N)N)C(=O)N[C@@H](CCCNC(=N)N)C(=O)N1CCC[C@H]1C(=O)N[C@@H](CCCNC(=N)N)C(=O)N1CCC[C@H]1C(=O)N1CCC[C@H]1C(=O)N[C@@H](CCCNC(=N)N)C(=O)N[C@@H](CC(C)C)C(=O)N1CCC[C@H]1C(=O)N[C@@H](CCCNC(=N)N)C(=O)N1CCC[C@H]1C(=O)N[C@@H](CCCNC(=N)N)C(=O)N1CCC[C@H]1C(=O)N[C@@H](CCCNC(=N)N)C(=O)N1CCC[C@H]1C(=O)N[C@@H](CC(C)C)C(=O)N1CCC[C@H]1C(=O)N[C@@H](Cc1ccccc1)C(=O)N1CCC[C@H]1C(=O)N[C@@H](CCCNC(=N)N)C(=O)N1CCC[C@H]1C(=O)NCC(=O)N1CCC[C@H]1C(=O)N[C@@H](CCCNC(=N)N)C(=O)N1CCC[C@H]1C(=O)N[C@H](C(=O)N1CCC[C@H]1C(=O)N[C@@H](CCCNC(=N)N)C(=O)N1CCC[C@H]1C(=O)N[C@@H](CC(C)C)C(=O)N1CCC[C@H]1C(=O)N[C@@H](Cc1ccccc1)C(=O)N1CCC[C@H]1C(=O)O)[C@@H](C)CC", "assay": "membrane permeabilization, propidium iodide flow cytometry", "test system": "BW25113, Mueller-Hinton broth", "setting": "8 µM, 15 min, 37 °C", "measurement": "PI-positive cells", "result": "~50%"}
{"Compound": "Cn1c(SCCN2CCCC2)nnc1C12CC3CC(CC(C3)C1)C2", "test system": "IFO 3301", "setting": "200 µg/disc, 24 h, 37 °C", "measurement": "inhibition zone diameter", "result": "< 10 mm"}
{"Compound": "CC(=O)N[C@H]1[C@H](Oc2ccccc2-c2cccc(C(=O)O)c2)O[C@H](CO)[C@H](O)[C@@H]1O", "test system": "UPEC CFT073, C3H/HeN mice, chronic cystitis, kidney", "setting": "transurethral, 50 mg/kg, 6 h posttreatment", "how to read": "reference: vehicle", "measurement": "bacterial burden", "result": "decreased"}
{"Compound": "COc1c2c(cc3oc(=O)cc(-c4ccccc4)c13)C(=O)c1cc(C)cc(O)c1C2=O", "test system": "MTCC 739", "setting": "100 µg/disc", "measurement": "inhibition zone diameter", "result": "14 mm"}
{"Compound": "c1ccc(CN2CCOCCOCCN(CCCCCCCCCCCCCCN3CCOCCOCCN(CCCCCCCCCCCCCCN4CCOCCOCCN(Cc5ccccc5)CCOCCOCC4)CCOCCOCC3)CCOCCOCC2)cc1", "assay": "K+ selective electrode", "test system": "tetracycline-resistant", "setting": "10 µM", "how to read": "reference: total potassium", "measurement": "potassium release", "result": "> 80%"}
{"Compound": "N=C(N)NCCC[C@@H]1NC(=O)[C@H](CCCNC(=N)N)NC(=O)[C@H](CCCNC(=N)N)NC(=O)[C@H](Cc2ccc3ccccc3c2)NC(=O)[C@H](Cc2c[nH]c3ccccc23)NC(=O)[C@H](Cc2ccc3ccccc3c2)NC(=O)[C@H](CCCNC(=N)N)NC1=O", "assay": "bacterial killing", "test system": "ATCC BAA-2452", "setting": "4 x MIC", "measurement": "time to growth halt", "result": "2 h"}
{"Compound": "O.O.O.O.O=C([O-])Cc1ccccc1Nc1c(Cl)cccc1Cl.O=C([O-])Cc1ccccc1Nc1c(Cl)cccc1Cl.[Na+].[Na+].c1cnc2c(c1)ccc1cccnc12.c1cnc2c(c1)ccc1cccnc12", "assay": "crystal violet", "test system": "ATCC 25922", "setting": "250 µM", "measurement": "biofilm inhibition", "result": "76.83 ± 0.009%"}
{"Compound": "CC(=O)[O-].O.O.[O-]c1ccc(Br)cc1C=NCCN1CCOCC1.[Zn+2]", "setting": "20 µL of 100 µM per disc", "measurement": "inhibition zone diameter", "result": "28 mm"}
{"Compound": "COc1ccc(/N=N/C(=S)N2CCN(C)CC2)cc1", "assay": "microbial growth", "test system": "ATCC 8739, ATCC8739", "setting": "24 h", "measurement": "IC50", "result": "> 50 µM"}
{"Compound": "FC(F)(F)c1ccc2nc3c4cccnc4c4ncccc4c3nc2c1.[Cl-].[Cl-].[Ru+2].c1ccncc1.c1ccncc1.c1ccncc1.c1ccncc1", "setting": "LED irradiation 470 nm", "measurement": "MIC90", "result": "4 µM"}
{"Compound": "CC(C)C[C@@H]1NC(=O)[C@H](CCCCN)NC(=O)CNC(=O)[C@H]2CCCN2C(=O)[C@H](CCCCN)NC(=O)[C@H](CC(C)C)NC(=O)[C@H](CCCCN)NC(=O)[C@H](CC(C)C)NC(=O)[C@H](CCCCN)NC(=O)C(N)CCC=CCCC(C(N)=O)NC(=O)[C@H](CCCCN)NC(=O)[C@H](CC(C)C)NC(=O)[C@H](CCCCN)NC1=O (stereo partly drawn)", "test system": "ATCC 25922", "setting": "2× MIC", "measurement": "time to complete killing", "result": "≤ 3 h"}
{"Compound": "CO[C@H]1O[C@H](COC(c2ccccc2)(c2ccccc2)c2ccccc2)[C@@H](OS(=O)(=O)c2ccccc2)[C@H](OS(=O)(=O)c2ccccc2)[C@H]1OS(=O)(=O)c1ccccc1", "setting": "concentration not given", "measurement": "inhibition zone diameter", "result": "12 ± 0.3 mm"}
{"Compound": "CC(=NNC(=N)N)c1nnn(-c2ccc(C#CC3(O)CCCCC3)cc2)c1C", "assay": "microbial killing", "test system": "ATCC25922", "measurement": "MBC", "result": "31.2 µg/mL"}
{"Compound": "O=C(O)[C@@H]1Cc2c([nH]c3ccccc23)[C@@H](c2ccc(Cl)cc2)N1", "test system": "BL21(DE3)", "setting": "250 µM, 18 h", "measurement": "growth inhibition", "result": "0%"}
